Results gathered from unrelated publications.
Numbered parts are unrelated; each lists some results of a single study. Several values in a cell are separate wells, animals, samples, runs or records.
Chain of UniProt P11229 (whole entry, looked up): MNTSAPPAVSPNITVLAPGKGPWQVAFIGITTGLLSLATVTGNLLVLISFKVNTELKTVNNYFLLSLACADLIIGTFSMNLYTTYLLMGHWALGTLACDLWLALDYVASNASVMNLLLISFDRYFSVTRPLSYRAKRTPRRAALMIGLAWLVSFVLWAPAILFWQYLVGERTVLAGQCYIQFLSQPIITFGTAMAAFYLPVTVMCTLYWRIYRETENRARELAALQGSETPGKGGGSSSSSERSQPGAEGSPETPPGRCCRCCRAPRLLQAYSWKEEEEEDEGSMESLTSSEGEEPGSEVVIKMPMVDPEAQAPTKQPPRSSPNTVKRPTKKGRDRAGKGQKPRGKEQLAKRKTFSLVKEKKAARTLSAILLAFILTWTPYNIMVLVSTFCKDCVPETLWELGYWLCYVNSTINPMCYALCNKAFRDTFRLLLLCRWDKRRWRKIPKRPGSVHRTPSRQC

Series 1 — species: mouse; medium: microsomes or S9; tested at: 2 µM; time: 0.5 h
| Structure (SMILES) | remaining compound [%] |
| --- | --- |
| C(=C\c1ccccc1)/CNCCCN1CCOCC1 | 24.8 |
| Cc1cc(-c2cc(=O)n(Cc3ccc(F)cc3Cl)nc2-c2ccco2)on1 | 93.7 |
| COc1ccc(Nc2nnc(-c3ccc(C)c(S(=O)(=O)N4CCCCC4)c3)c3ccccc23)cc1C(N)=O | 0.128 |
| O=C(CCn1ccc2ccc(F)cc21)Nc1nc[nH]n1 | 84.3 |
| COc1ccc(-n2cc(CO)c3cnc4c(OC)cccc4c32)c(C)c1 | 27 |
| Cc1c(C(=O)Cn2nnn(-c3ccccc3)c2=O)sc2ccccc12 | 59.9 |
| CCOc1ccccc1NC(=O)N1Cc2c(sc3c2CCCC3)-n2cccc2C1c1ccc(N(C)C)cc1 (stereo not shown) | 14.6 |
| Nc1ccc(C(=O)Nc2nc(-c3ccc(F)cc3F)cs2)cc1 | 49 |

Series 2 — technique: CellTiter-Glo; time: 6 days
SMILES: CO[C@@H]1[C@@H](OC(N)=O)[C@@H](O)[C@H](Oc2ccc3c(O)c(NC(=O)c4ccc(O)c(CC=C(C)C)c4)c(=O)oc3c2C)OC1(C)C
| cell line | conditions | how to read | viability |
| --- | --- | --- | --- |
| UWB1.289 parental | 50 µM | relative to: untreated | 64.1% |
| RPE-1 BRCA1-/- PARPi-resistant R3 | 200 µM | – | 42.3% and 41.2% |
| RPE-1 wild type | 25 µM | relative to: untreated | 97.6% and 96.1% |
| MDA-MB-436 PARPi-resistant | 6.3 µM | relative to: untreated | 121% and 101% and 119% and 106% and 112% |
| RPE-1 wild type | 150 µM | relative to: untreated | 104% and 109% |

Series 3 — read-out: RNA clamping; technique: fluorescence polarization; tested at: concentration not given; together with: FAM-labelled poly r(AG)8 RNA
Target: Eukaryotic initiation factor 4A-III (Homo sapiens, UniProt P38919)
Chain of UniProt P38919 (whole entry, looked up): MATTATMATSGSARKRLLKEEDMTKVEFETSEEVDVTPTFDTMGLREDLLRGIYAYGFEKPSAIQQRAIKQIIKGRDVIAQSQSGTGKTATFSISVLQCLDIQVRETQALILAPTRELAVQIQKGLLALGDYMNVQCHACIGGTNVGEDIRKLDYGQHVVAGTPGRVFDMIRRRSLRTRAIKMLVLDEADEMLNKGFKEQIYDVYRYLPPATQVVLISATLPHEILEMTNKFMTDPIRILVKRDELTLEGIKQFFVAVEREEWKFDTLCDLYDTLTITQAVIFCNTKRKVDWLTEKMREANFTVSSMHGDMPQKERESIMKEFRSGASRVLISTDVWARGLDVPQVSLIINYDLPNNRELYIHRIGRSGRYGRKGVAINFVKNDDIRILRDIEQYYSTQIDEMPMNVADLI
| SMILES | fluorescence polarization change |
| --- | --- |
| COc1ccc([C@H]2[C@H](C(=O)N(C)C)[C@@H](O)[C@@]3(O)c4c(OC)cc(OC)cc4O[C@@]23c2ccc(OC)cc2)cc1 | 2.1 mP |
| C#CCOc1ccc(-c2nc(OCC#C)c3c(n2)[C@@]2(O)c4c(OC)cc(OC)cc4O[C@@]2(c2ccc(OC)cc2)[C@@H]3c2ccccc2)cc1 | -0.1 mP |
| COC(=O)[C@@H]1[C@@H](c2ccccc2)[C@]2(c3ccc(OC)cc3)Oc3cc(OC)cc(OC)c3[C@@]23NC(C2CCN(C(=O)OC(C)(C)C)CC2)=N[C@@]13O | 13.6 mP |
| O=C1O[C@H]2[C@@H]1[C@H](c1ccccc1)[C@@]1(c3ccccc3)Oc3ccccc3[C@@]21O | -8.1 mP |
| COc1ccc([C@@]23Oc4cc(OC)cc(OC)c4[C@]2(OC)c2nc(-c4ccccc4)n(C)c(=O)c2[C@H]3c2ccccc2)cc1 | 0.5 mP |
| COc1ccc([C@@]23Oc4cc(OC)cc(OC)c4[C@]2(O)c2nc(N4CCOCC4)[nH]c(=O)c2[C@H]3c2ccccc2)cc1 | 33.7 mP and 33 mP |
| COC(=O)[C@H]1C(=O)[C@@]2(NCCc3scnc3C)c3c(OC)cc(OC)cc3O[C@@]2(c2ccc(OC)cc2)[C@@H]1c1ccccc1 | 5.6 mP |
| COc1ccc([C@@]23Oc4cc(OC)cc(OC)c4[C@@]24NC(C)=N[C@@]4(O)[C@H](C(C)=O)[C@H]3c2ccccc2)cc1 | 25.5 mP |

Further values, each from its own experiment
| SMILES | target | test | conditions | measurement | result |
| --- | --- | --- | --- | --- | --- |
| O=C(Nc1cccnn1)N1CC(CC=Cc2cncc(Oc3ccc(C(F)(F)F)cn3)n2)C1 | Muscarinic acetylcholine receptor M1 (CHRM1, Homo sapiens, UniProt P11229) | binding, radioligand binding | 10 µM | inhibition | -6.78% |

For quick reference, copied from above (series 3):
| SMILES | fluorescence polarization change |
| --- | --- |
| O=C1O[C@H]2[C@@H]1[C@H](c1ccccc1)[C@@]1(c3ccccc3)Oc3ccccc3[C@@]21O | -8.1 mP |
| COc1ccc([C@@]23Oc4cc(OC)cc(OC)c4[C@]2(OC)c2nc(-c4ccccc4)n(C)c(=O)c2[C@H]3c2ccccc2)cc1 | 0.5 mP |
